Measurements of several laboratories.
A part holds a random share of what one study measured.

Sample 1
Target: Interferon regulatory factor 7, full length, phosphomimetic (IRF7, Homo sapiens, UniProt Q92985, residues 1-503, S101K/S471D/S472D/S475D/S476D/S477D/S483D/S484D/S487D)
Method: protein-binding microarray
Molecule type: double-stranded DNA, one strand shown
Medium: in vitro
Concentration: 250 nM
Setting: 60-bp whole probe
With: salmon DNA 0.4 mg/ml
Relative to: random background probes
Direction: higher = stronger binding
Endpoint: log fluorescence
Shared flanks, not repeated: GCCTAGCAC … GTCTTGATTCGCTTGACGCTGCTG
Residues (chain): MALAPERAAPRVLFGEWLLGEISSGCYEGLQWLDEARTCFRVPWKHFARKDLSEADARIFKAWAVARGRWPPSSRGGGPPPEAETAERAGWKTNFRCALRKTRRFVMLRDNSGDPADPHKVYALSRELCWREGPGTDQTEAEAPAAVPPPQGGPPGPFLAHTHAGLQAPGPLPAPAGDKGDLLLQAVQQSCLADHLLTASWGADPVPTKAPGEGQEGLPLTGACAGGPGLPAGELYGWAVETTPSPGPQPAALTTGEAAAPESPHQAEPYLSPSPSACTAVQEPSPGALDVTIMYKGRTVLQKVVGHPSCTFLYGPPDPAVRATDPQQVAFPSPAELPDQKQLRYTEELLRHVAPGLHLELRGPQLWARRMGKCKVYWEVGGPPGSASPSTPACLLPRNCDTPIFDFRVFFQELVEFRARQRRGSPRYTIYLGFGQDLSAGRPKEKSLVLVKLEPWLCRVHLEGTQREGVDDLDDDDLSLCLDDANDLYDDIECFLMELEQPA
TGAGAACTGAGTCTCGATTAGTGCTAG: 0.872 z-score
GACGGTTTCAGGTTTCGGGACGTGCTA: 5.56 z-score
TTAGGTTTCCGTATCGGTTAGTGCTAG: 3.77 z-score
GACGAACTGGTGACTGGAGACGTGCTA: -0.594 z-score
GGCGGTTTCGGTATCGGGACGTGCTAG: 9.92 z-score
GACGGTTTCGGGAGTGGGGACGTGCTA: 2.33 z-score
GAAGGACTGGGGTATCGGGACGTGCTA: -0.699 z-score
GACGATATCGGACTGGAGACGTGCTAG: 0.0637 z-score
TCAATTTTCCCCTACTGACTGTGCTAG: 1.49 z-score
TTAGATTTCGGATATCGATTAGTGCTA: 1.06 z-score
TCATCTTTTTTTCTTTTACTGTGCTAG: 1.36 z-score
AGCCTTATCCCTAATCTCAGCGTGCTA: 0.0256 z-score

Sample 2
Target: Ras GTPase-activating protein-binding protein 1, full length (G3BP1, Homo sapiens, UniProt Q13283)
Sequence of UniProt Q13283 (whole entry, looked up): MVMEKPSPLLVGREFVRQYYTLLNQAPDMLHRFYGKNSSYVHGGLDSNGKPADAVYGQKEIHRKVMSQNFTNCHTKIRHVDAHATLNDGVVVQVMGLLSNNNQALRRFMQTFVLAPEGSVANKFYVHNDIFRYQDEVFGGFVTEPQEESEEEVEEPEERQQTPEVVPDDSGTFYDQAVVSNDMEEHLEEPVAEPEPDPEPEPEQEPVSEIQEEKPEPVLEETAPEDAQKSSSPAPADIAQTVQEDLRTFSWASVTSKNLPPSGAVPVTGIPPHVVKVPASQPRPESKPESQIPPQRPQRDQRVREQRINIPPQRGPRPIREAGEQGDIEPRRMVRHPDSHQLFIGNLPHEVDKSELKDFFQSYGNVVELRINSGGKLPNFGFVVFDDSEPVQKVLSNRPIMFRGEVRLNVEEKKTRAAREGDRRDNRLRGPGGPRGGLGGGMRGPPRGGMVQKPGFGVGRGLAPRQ
Method: RNA Bind-n-Seq
Molecule type: RNA
Medium: in vitro
Concentration: 200 nM
Setting: whole 134-nt RNA, ends assumed
With: 150 mM LiCl
Relative to: input library
Direction: higher = stronger binding
Endpoint: log2 enrichment
Each molecule: 7-deaza-guanosine replaces G
Shared flanks, not repeated: GGGAGUUCUACAGUCCGACGAUC … UGGAAUUCUCGGGUGUCAAGG
CCUCAAGUCCUGUGCUACACAUCGUAUGUACCGAAUCGGAAGGAAGGGAAGGGAAAGUAUUAUGUUACGCCGUUCGGAUCUGCACUUCCA: -0.0529
UUUCUAGGGAAGGUGCUUCUGGAAAAGUUGCUGAGGUCUUGUCCUAAGGUGAAUUCAGUAUAUGUUUUGGUGAGGCAGAAAGCUGGACAG: -2.1
AAGUCCUGUGCUACACAUCGUAUGUACCGAAUCGGGGAGGGGAAAGGGGAAAGGGGAAAGUAUUAUGUUACGCCGUUCGGAUCUGCACUU: 0.875
ACCAUGCAGGUGGGCAUCUUUGGGAUGUGGGGCAAGGGGGGGAUAGGGAGGGGGGUAACACUUUGGGAACAGGUGGUCCCAGGUCGUUUC: 0.226
AAGUCCUGUGCUACACAUCGUAUGUACCGAAUCGGGUUUUUUUGGGUUUGGGUGGGAAAGUAUUAUGUUACGCCGUUCGGAUCUGCACUU: -0.566
ACCAUGCAGGUGGGCAUCUUUGGGAAGUGGGGCAAGGGGGGGAUAGGGAGGGGGGUAACACUUUUGGAACAGGUGGUCCCAGGUCGUUUC: -0.0875
UGUGCUACACAUCGUAUGUACCGAAUCGGGGUUUUUUUGGGGUUUUUUUGGGUUUUUUUGGGGAAAGUAUUAUGUUACGCCGUUCGGAUC: 1.91
CUGUGCUACACAUCGUAUGUACCGAAUCGGGGUUUUUGGGGAAAAAAAGGGGAAAAAGGGGAAAGUAUUAUGUUACGCCGUUCGGAUCUG: -0.232
GCAGGAAGUAAAAACAGAUGGAAAUGCUUCGGAUAGUGGCAGGGGUGGGGGUUGCUAAGGAAAGGGUGGGAUGGGAGUGGGUAAAGAGUU: -0.353
CACAGACAACACGCACCCACACAGACACAGAGGGAUGGGGUUGGGAUGGGGACAGGGUGCACAGCAGGGCGGGGUAGGACCCCAGCCCCU: -0.393
CAAGUCCUGUGCUACACAUCGUAUGUACCGAAUCGGUGGAAAAAGGUUUUUUUGGAAAGUAUUAUGUUACGCCGUUCGGAUCUGCACUUC: -1.11

Sample 3
Organism: Saccharomyces cerevisiae
Effect on: binding
Method: yeast competitive growth sequencing
Molecule type: peptide
Strain: cyclin A1-Cln2 strain
Medium: peptide tiling library
Setting: pooled screen
Direction: direction not given
Endpoint: enrichment score
RQVRRDLFAF: -1.15
EPRNLLSLFEDTLDPT: 1.45
GTPKRCLDLSNLSSGE: 0.274
SPPRGRRLFPPGPAGF: -0.361
HPESPPRKRLKSKGSD: 4.48
AKRSLGFLPQPVPL: -0.229

Single results of other studies
PhoQ, residues 284 288 289 292 302 303 SSCLAV  fold induction (PhoP, residues 12 14 15 18 19 LHHSG (Escherichia coli, UniProt P23836); Sort-seq, refers to: YFP reporter; E. coli; PhoQ-PhoP variant library, with: 10 µM Mg2+; relative to: high Mg2+ state, higher = stronger signaling): 7.51

A few entries again (sample 1):
TTAGATTTCGGATATCGATTAGTGCTA: 1.06 z-score
TTAGGTTTCCGTATCGGTTAGTGCTAG: 3.77 z-score
